Results of several laboratories.
A part holds a random share of what one study measured.

Series 1
Target: Protein max, full length (MAX, Homo sapiens, UniProt P61244-2, residues 1-151)
Technique: protein-binding microarray
Molecule type: double-stranded DNA, one strand shown
Sample: in vitro
Concentration: not given
Notes: k-mer, scored over probes, only values ≥0.25
Reading: higher = stronger binding
`ACATGGAA` has an E-score of 0.358.
`CCCACGGG` has an E-score of 0.348.
With `GTGTCAAA` the E-score was 0.278.
For `ATGTACAC`, the E-score was 0.262.
For `CATGGTAG`, the E-score was 0.313.
The E-score of `ATGCCACA` is reported as 0.292.

Series 2
Target: Fragile X messenger ribonucleoprotein 1, C-terminal low-complexity region (Fmr1, Mus musculus, UniProt P35922)
Technique: RNA Bind-n-Seq
Molecule type: RNA
Sample: in vitro
Concentration: 200 nM
Notes: whole 134-nt RNA, ends assumed
Added: 150 mM LiCl
Relative to: input library
Reading: higher = stronger binding
Each molecule: 7-deaza-guanosine replaces G
With `GGGAGUUCUACAGUCCGACGAUCACCAUGCAGGUGGGCAUCUUUGGGAAUUGGGGCAAGGGGGGGAUAGGGAGGGGGGUAACACUUUGGGAACAGGUGGUCCCAGGUCGUUUCUGGAAUUCUCGGGUGUCAAGG` the log2 enrichment was 1.74.
`GGGAGUUCUACAGUCCGACGAUCUCCUGUGCUACACAUCGUAUGUACCGAAUCGGGGAAAAAAAGGGGUUUGGGGUUUGGGGAAAGUAUUAUGUUACGCCGUUCGGAUCUGCAUGGAAUUCUCGGGUGUCAAGG` gave a log2 enrichment of -1.18.
The log2 enrichment of `GGGAGUUCUACAGUCCGACGAUCCACAGACAACACGCACCCACACAGACACAGAGGGAAGGGGUUGGGAUGGGGACAGGGUGCACAGCAGGGCGGGGUAGGACCCCAGCCCCCUGGAAUUCUCGGGUGUCAAGG` is reported as 0.469.
For `GGGAGUUCUACAGUCCGACGAUCACCAUGCAGGUGGGCAUCUUUGGGAAGUGGGGCAAGGGGGGGAUAGGGAAAAGGGUAACACUUUGGGAACAGGUGGUCCCAGGUCGUUUCUGGAAUUCUCGGGUGUCAAGG`, the log2 enrichment was 0.833.

Series 3
Target: Interferon regulatory factor 7, full length, phosphomimetic (IRF7, Homo sapiens, UniProt Q92985, residues 1-503, S471D/S472D/S475D/S476D/S477D/S483D/S484D/S487D)
Technique: protein-binding microarray
Molecule type: double-stranded DNA, one strand shown
Sample: in vitro
Concentration: 2200 nM top
Notes: 60-bp whole probe
Added: salmon DNA 0.4 mg/ml
Relative to: random background probes
Reading: higher = stronger binding
Constant ends, left off below: GCCTAGCAC … GTCTTGATTCGCTTGACGCTGCTG
Construct (chain): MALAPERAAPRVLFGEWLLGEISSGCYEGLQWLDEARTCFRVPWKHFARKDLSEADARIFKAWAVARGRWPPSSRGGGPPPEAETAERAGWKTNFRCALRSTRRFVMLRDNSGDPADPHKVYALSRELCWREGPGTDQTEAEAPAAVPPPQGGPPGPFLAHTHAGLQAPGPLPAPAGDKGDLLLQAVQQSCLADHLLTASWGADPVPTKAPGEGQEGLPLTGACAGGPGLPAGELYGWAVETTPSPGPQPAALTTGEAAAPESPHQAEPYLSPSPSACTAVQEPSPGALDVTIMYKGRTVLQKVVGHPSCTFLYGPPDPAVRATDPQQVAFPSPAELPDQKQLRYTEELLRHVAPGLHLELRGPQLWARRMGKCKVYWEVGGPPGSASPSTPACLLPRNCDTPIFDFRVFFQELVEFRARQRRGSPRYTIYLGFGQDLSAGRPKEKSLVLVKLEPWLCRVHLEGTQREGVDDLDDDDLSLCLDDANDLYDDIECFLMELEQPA
For `GAGCCCGGGGTGTAAGCAACGTGCTAG`, “fitted relative affinity” read -1.21 z-score.
`GACGGTTTCCTGCTCCTGACGTGCTAG`: “fitted relative affinity” 2.29 z-score.
Under “fitted relative affinity”, `TCATTTCTCTGGTTCTTACTGTGCTAG` is recorded as 2.71 z-score.
`CATCCTGAGTCAAGTCAAGTGTGCTAG` — result for “fitted relative affinity”: 0.516 z-score.
`GACGGTCTCCTTCTACTGACGTGCTAG`: “fitted relative affinity” 1.24 z-score.
Under “fitted relative affinity”, `TTAGGATTCGGGTATCGGTTAGTGCTA` is recorded as 1.31 z-score.

Further values, each from its own experiment
`PhoQ, residues 284 288 289 292 302 303 SCCLKL` gave a fold induction of 2.77 (PhoP, residues 12 14 15 18 19 NHFIF (Escherichia coli, UniProt P23836); Sort-seq, measured: YFP reporter; E. coli; PhoQ-PhoP variant library, added: 10 µM Mg2+; relative to: high Mg2+ state, higher = stronger signaling).

For quick reference, copied from above (series 2):
`GGGAGUUCUACAGUCCGACGAUCUCCUGUGCUACACAUCGUAUGUACCGAAUCGGGGAAAAAAAGGGGUUUGGGGUUUGGGGAAAGUAUUAUGUUACGCCGUUCGGAUCUGCAUGGAAUUCUCGGGUGUCAAGG` gave a log2 enrichment of -1.18.
